Assay results collected from several papers.
± marks the error that the study gave.

The tissue uptake of `[64Cu+2].c1ccc(CNCc2ccc(CN3CCCN4CCNCCCN(CC4)CC3)cc2)nc1` is reported as 14.9 ± 2.4 %ID/g (CXCR4; NOD/SCID mouse, U87 and U87-stb-CXCR4 xenografts, spleen; iv, 120 min, ex vivo).
`Cc1cc(C#N)cc(C)c1Oc1nc(NC2CCN(Cc3ccc(C(N)=O)cc3)CC2)nc2ncccc12` gave a selectivity index of 40800 (HIV-1; TZM-bl, NL4-3 wild type; relative to: CC50 over EC50).
`CC(=O)N[C@H](C(=O)N[C@H](C(=O)N[C@@H](CCCNC(=N)N)C(=O)N1Cc2ccccc2C[C@H]1C(=O)N[C@@H](Cc1ccccc1)C(N)=O)C1CCCCC1)C(C)C` has a cytokine level of 4.3 ± 2.9 pg/mL (human PBMC; Bio-Plex multiplex, refers to: IL-10; 250 µg/mL, 24 h).
For `N=C(N)c1ccc(-c2ccc(-c3ccco3)o2)nc1`, the viability was 102 ± 9% (Salmonella typhimurium; liquid broth OD; TA1535; 25 µM, 15 h; relative to: growth).
With `C=CCC1=C[C@]2(C[C@H](O)C(C)(C)O2)C2=C(C[C@@H]3C[C@H]4C(=C)CCCC(C)(C)[C@@H]4C[C@]3(C)O2)C1=O` the selectivity index was 2.6 (coxsackievirus B3; cytopathic effect; Vero, Nancy; relative to: CC50 over IC50).
`N#Cc1ccc(-c2ccc(-c3ccco3)o2)nc1` has a viability of 101 ± 9.7% (Salmonella typhimurium; liquid broth OD; TA1535; 100 µM, 15 h; relative to: growth).
The selectivity index of `C=CCC1=C[C@]2(C[C@@H](O)C(C)(C)O2)C2=C(C[C@H]3C[C@H]4[C@H](C[C@@]3(C)O2)C(=C)CCCC4(C)C)C1=O` is reported as 2.1 (coxsackievirus B3; cytopathic effect; Vero, Nancy; relative to: CC50 over IC50).
For `N=C(N)c1ccc(-c2ccc(-c3ccco3)o2)cc1`, the viability was 46.5 ± 3.4% (Salmonella typhimurium; liquid broth OD; TA1535; 50 µM, 15 h; relative to: growth).
For `CC(C)CCC[C@@H](C)[C@H]1CCC([C@@H]2CC[C@H]3C[C@H](O)CC[C@]3(C)[C@H]2O)[C@]1(C)CC(=O)O` (stereo partly drawn), the viability was greater than 100% (HEK293T; CellTiter-Blue; 10 µM).
The viability of `N#Cc1ccc(-c2ccc(-c3cccs3)o2)cc1` is reported as 100 ± 7.3% (Salmonella typhimurium; liquid broth OD; TA1535; 50 µM, 15 h; relative to: growth).
`[64Cu+2].c1cnc(CNCc2ccc(CN3CCCN4CCNCCCN(CC4)CC3)cc2)nc1` has a tissue uptake of 1.84 ± 0.29 %ID/g (CXCR4; NOD/SCID mouse, U87 and U87-stb-CXCR4 xenografts, pancreas; iv, 90 min, ex vivo).
For `O=C(O)CCC(NP(=O)(O)OCCC[C@@H](NC(=O)CC[C@H](NC(=O)CCCCCNC(=O)c1ccc([18F])cc1)C(=O)O)C(=O)O)C(=O)O` (stereo partly drawn), the tracer uptake was 0.167 %ID/g (CWR22Rv1 tumour model; host not given, liver; 4 h, tumour-bearing).

A few entries again:
`N#Cc1ccc(-c2ccc(-c3ccco3)o2)nc1` has a viability of 101 ± 9.7% (Salmonella typhimurium; liquid broth OD; TA1535; 100 µM, 15 h; relative to: growth).
